Results collected from several papers.
Each line is one published result; not all experiments were run side by side. “And” joins repeats or separate records; there may be more than shown. ± marks the error that the study gave.

Structure (SMILES)	test system	conditions	plasma concentration
Cc1cccc(Cn2ncc3c4cc(F)c(CN(C)C)cc4n(C)c3c2=O)n1	Dutch-belted rabbit, plasma	intravitreal, 1 µM vitreous, 28.00 days	0.00213 µg/mL
O=C(NS(=O)(=O)c1cccs1)c1cc2ccccc2n1Cc1ccc(Br)c2ccccc12	Sprague-Dawley rat, male, plasma	oral, 2 mg/kg, 24 h	0.00283 µg/mL
COc1ccc2c(c1)CN(C(=O)CCN1CCC(Cc3ccccc3)CC1)CCS2	paroxysmal atrial fibrillation patients, plasma	oral, 540 mg, 120 min	0.333 ± 0.1 µg/mL
CCCC[C@H](OC(C)=O)c1ccccc1C(=O)O	beagle dog, both sexes, whole blood	intravenous, 1.5 mg/kg, 1 min, day 7	5.97 ± 0.924 µg/mL
Cc1ncsc1-c1ccc(CNC(=O)[C@@H]2C[C@@H](O)CN2C(=O)[C@@H](NC(=O)COCC(C)(COCCOCCOCCNC(=O)C[C@@H]2N=C(c3ccc(Cl)cc3)c3c(sc(C)c3C)-n3c(C)nnc32)COCCOCCOCCNC(=O)C[C@@H]2N=C(c3ccc(Cl)cc3)c3c(sc(C)c3C)-n3c(C)nnc32)C(C)(C)C)cc1	male C57BL/6 mice	intravenous, 5 mg/kg, 30 min	11.1 µg/mL and 8.15 µg/mL
Cc1nn(-c2nc3c(F)cc(F)cc3s2)c(O)c1C(c1ccc(C(F)(F)F)cc1)c1c(C)nn(-c2nc3c(F)cc(F)cc3s2)c1O	ICR mouse	oral, 50 mg/kg, 2.00 h	31.3 µg/mL and 0.226 µg/mL and 0.569 µg/mL
Cc1noc(C)c1Cn1cc(N2C(=O)CN(Cc3cccc(O[C@@H]4O[C@H](C(=O)O)[C@@H](O)[C@H](O)[C@H]4O)c3)C2=O)cn1	rat Sprague-Dawley male, plasma	oral, 100 mg/kg of parent drug, 2 h	0.0741 ± 0.0293 µg/mL
C=C[C@]1(C)C[C@@H](OC(=O)CSc2ccc(NC(=O)c3ccco3)cc2)[C@]2(C)[C@H](C)CC[C@]3(CCC(=O)[C@H]32)[C@@H](C)[C@@H]1O	Mycoplasma gallisepticum-infected chickens, plasma	intramuscular, 5 mg/kg, 0.5 h	0.666 µg/mL and 0.499 µg/mL and 0.557 µg/mL and 0.658 µg/mL and 0.751 µg/mL and 0.624 µg/mL and 0.64 µg/mL and 0.573 µg/mL
Cc1noc(C)c1Cn1cc(N2C(=O)CN(Cc3cccc(OS(=O)(=O)O)c3)C2=O)cn1	rat Sprague-Dawley male, plasma	intravenous, 1 mg/kg of parent drug, 4 h	0.268 µg/mL
CC(=O)N[C@H](CC(=O)O)C(=O)N[C@H](Cc1c[nH]c2ccccc12)C(=O)N[C@H](Cc1ccccc1)C(=O)N[C@H](CCCCN)C(=O)N[C@H](C)C(=O)N[C@H](Cc1ccccc1)C(=O)N[C@H](Cc1ccc(O)cc1)C(=O)N[C@H](CC(=O)O)C(=O)N[C@H](CCCCN)C(=O)N[C@@H](C(=O)N[C@H](C)C(=O)N[C@H](CCC(=O)O)C(=O)N[C@H](CCCCN)C(=O)N[C@H](Cc1ccccc1)C(=O)N[C@H](CCCCN)C(=O)N[C@H](CCC(=O)O)C(=O)N[C@H](C)C(=O)N[C@H](Cc1ccccc1)C(N)=O)C(C)C	human, plasma	oral, 500 mg daily, 1 h post-dose, day 13	0.433 µg/mL
